Measurements from different studies.
Each numbered part is a random draw from the data of one study; scales do not carry over between parts.

Sample 1
Target: RNA binding protein fox-1 homolog 2, RRM domain, GST-SBP tag (RBFOX2, Homo sapiens, UniProt O43251-10, residues 100-194)
Method: RNA Bind-n-Seq
Molecule type: RNA
Medium: in vitro
Tested at: 365 nM
Notes: natural RNA segment, single round, ends assumed
Baseline: no-protein control
Reading: higher = stronger binding
Endpoint: RBNS enrichment (R)
Residues (chain): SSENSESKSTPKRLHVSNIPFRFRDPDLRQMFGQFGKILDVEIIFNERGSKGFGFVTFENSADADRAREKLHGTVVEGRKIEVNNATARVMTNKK
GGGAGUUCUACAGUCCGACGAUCACAGUGAGUUGAGUUGGCUCUCCCACAGUCUUUGAGGUGAAUUACAAAAGUCCAGCCAUUAUCAUCCUCCUGAGUUAUUUGAAAUGAUUUUUUUUGUACAUUUUGGCUGCUGGAAUUCUCGGGUGCCAA: 0.747
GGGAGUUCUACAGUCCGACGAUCGUAUGGCUGGGAAAUGGACUUAAGGCUUGGGCUUGAAUUGGUGGCUCCUACCUGUGAGGUCCCAUCGUGAGUCACUGGGAUUUGUGUUGCAUGGAAGGCAGUCUUUCCUGUGGAAUUCUCGGGUGCCAA: 2.23
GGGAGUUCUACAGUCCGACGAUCGCAGUUCUAGUUUUCCCAGUAGUUCCAUGGCAGGUUCAACCUCUCAGUGUCCUGAAAAAUGGAACCACCCACUAACCAUAUGCACUGGCUGCCCAGGUGGCUGCACUCCGUGGAAUUCUCGGGUGCCAA: 0.935
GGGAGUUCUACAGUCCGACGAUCAAAGAUAAUUUAUGGCAAAGUGUUUAAAUUGUUUAUACAUAAAUAAAGUCUCUAAAACUCCUGUGGACACUGGUCUUGUGUGGAAAUGAUUUGAGAUGAGAAAAAGGCAAUGGAAUUCUCGGGUGCCAA: 1.76
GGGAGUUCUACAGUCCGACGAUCGUCCGGCACAGCUGCGGUCACCAAAGCAGGUGCUGGCCCUCGGACCUGAGAGCCCAGCCAGGGCCCAUGUGGUCUGCAAAUGGGAGCGGCUGUUUUUGAACACGGGGUCAUGGAAUUCUCGGGUGCCAA: 0.257
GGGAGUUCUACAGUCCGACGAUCAGCCUGGCUCUCAGAAGCCACGUUAGCGUCUCUCUCUCCUGCUGAUCGCUCGACACAGCACCUUUUCUAAAGAAAAAAAAAUCUUUUUUCCAGUUAACUUUGCAUCUUCAUGGAAUUCUCGGGUGCCAA: 1.97
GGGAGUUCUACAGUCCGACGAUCUUAUUUUUACUCAGUGACAUAAUUUUUAGUUUUAUUCCUCAUAGCAAAAGGAAAAAAAAAAUCCCAAUCCUCAAAAGGUCAAGGCCCCGUCCCCUGUUGUCGGUGAUUUGUGGAAUUCUCGGGUGCCAA: 0.571
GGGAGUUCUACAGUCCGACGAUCUUGGAAACAAAACUAAAAGCAAACUCAACAUAUGUGAUGUUUAUGGCCCUCAGAUCCUUAGUAUUGUGUGAUUUUCCCCCGUUAACAUGUCUUUCUAAAAUUGUCUAUUAUGGAAUUCUCGGGUGCCAA: 0.959
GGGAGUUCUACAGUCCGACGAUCGUGGACAUCAUCGACAGGAACAAUCACCAUAACAUGGUUAGAUGCUGCGGCCUCCGGAGCGCUUUCUCUGAAGCGACUGCACGUUCCUGCUGCUCUCCGAUCUCAUCAGAUGGAAUUCUCGGGUGCCAA: 0.325
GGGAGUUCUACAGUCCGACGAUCCCCUCCCCGCAACCCUGCCCCACCUUGCAUCCAGGGUAUGGUGUAAAUAAACCUGUGUUGCCAUGGCAACAGAGACCGGCGGUACCUGCCCCAAGCAAAGGACACCCCUGUGGAAUUCUCGGGUGCCAA: 1.39
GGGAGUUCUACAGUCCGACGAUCCCUCUCUCUCUCUGUCUCUCUCUGGUCUCUGUCUCUCUCUCUUUUUUUACCAGAACCCUUCUGCAAUGCCUCCUGCAUAGGUCCCAAGAUGUGUAGCGAUCCAUCCCUGGUGGAAUUCUCGGGUGCCAA: 1.75
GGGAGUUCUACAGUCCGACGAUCAUCCCCUCAUUCAGGAAAACUGACAGAGGAGGGCGUGACUCACCCAAGCAUAUAUAACUAGCUAGAAGUGGGCCAGGACAGGCCCGGCGCGGUGGCUCACGCCUGUAAUCUGGAAUUCUCGGGUGCCAA: 0.251

Sample 2
Target: Sal-like protein 4, full length isoform A (SALL4, Homo sapiens, UniProt Q9UJQ4, residues 1-1053)
Sequence of UniProt Q9UJQ4 (whole entry, looked up): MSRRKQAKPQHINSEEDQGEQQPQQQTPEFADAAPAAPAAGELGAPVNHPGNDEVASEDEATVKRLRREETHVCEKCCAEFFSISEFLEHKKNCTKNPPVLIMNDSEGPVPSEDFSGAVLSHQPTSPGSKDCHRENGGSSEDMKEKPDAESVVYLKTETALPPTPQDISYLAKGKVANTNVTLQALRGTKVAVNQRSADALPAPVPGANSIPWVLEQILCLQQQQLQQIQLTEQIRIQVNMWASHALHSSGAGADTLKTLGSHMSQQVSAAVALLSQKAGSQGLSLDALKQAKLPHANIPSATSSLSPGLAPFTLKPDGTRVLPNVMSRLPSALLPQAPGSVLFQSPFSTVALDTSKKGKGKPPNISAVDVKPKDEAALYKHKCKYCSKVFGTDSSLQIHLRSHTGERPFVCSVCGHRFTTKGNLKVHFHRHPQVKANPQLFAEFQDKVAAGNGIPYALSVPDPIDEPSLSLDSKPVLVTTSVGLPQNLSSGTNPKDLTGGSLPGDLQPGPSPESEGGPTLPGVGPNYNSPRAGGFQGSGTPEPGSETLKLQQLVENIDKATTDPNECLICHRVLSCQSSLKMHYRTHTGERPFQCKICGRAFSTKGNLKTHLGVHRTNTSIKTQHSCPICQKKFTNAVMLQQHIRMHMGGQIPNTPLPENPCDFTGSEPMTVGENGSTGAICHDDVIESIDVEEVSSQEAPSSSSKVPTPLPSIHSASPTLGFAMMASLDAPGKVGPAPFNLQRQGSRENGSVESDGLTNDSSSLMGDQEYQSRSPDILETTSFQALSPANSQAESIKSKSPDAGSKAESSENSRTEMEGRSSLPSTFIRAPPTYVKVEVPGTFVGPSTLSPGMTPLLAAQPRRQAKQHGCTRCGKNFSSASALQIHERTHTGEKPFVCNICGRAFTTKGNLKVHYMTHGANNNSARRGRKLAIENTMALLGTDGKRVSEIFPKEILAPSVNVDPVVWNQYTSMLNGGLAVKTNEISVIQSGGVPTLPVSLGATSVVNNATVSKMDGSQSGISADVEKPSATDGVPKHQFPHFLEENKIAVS
Method: universal PBM
Molecule type: double-stranded DNA, one strand shown
Medium: in vitro
Tested at: 600 nM
Notes: 8-mer, flanks averaged, mean of replicates
Reading: higher = stronger binding
Endpoint: E-score
AAACCATT: 0.193
CCGGAGGC: -0.392
CGGATGTC: -0.265
AACAGCTA: 0.0667
CCGAGGTA: -0.22
ATGCCACG: -0.11
GCCAGGCC: -0.348
ACGTAGAA: 0.0831
AAGGTGCA: -0.0406
ATTGAACA: 0.0747
AACCGCGG: -0.271
ACGAAAGG: 0.058
ATGTCGGA: -0.0527
AAACCCTA: 0.035
AACTGGCG: -0.234
CAATTAAG: 0.153
ACATTCGG: -0.0313
AATACGAT: 0.291
GAAAGTAA: 0.235
CTCGAGAC: -0.0745
CTTACCCC: -0.251
GTGGCTAA: 0.0228
ACCAGCAT: -0.0736
ACTGTCCG: -0.144
GTTCGAAA: 0.102

Sample 3
Target: Interferon regulatory factor 5, full length, phosphomimetic (IRF5, Homo sapiens, UniProt Q13568-2, residues 1-514, S451D/S453D/S456D/S462D)
Method: protein-binding microarray
Molecule type: double-stranded DNA, one strand shown
Medium: in vitro
Tested at: 940 nM top
Notes: 60-bp whole probe
With: salmon DNA 0.4 mg/ml
Baseline: random background probes
Reading: higher = stronger binding
Endpoint: fitted relative affinity
Shared flanks, not repeated: GCCTAGCAC … GTCTTGATTCGCTTGACGCTGCTG
TTAGGTTTCGACACTGGGTTAGTGCTA: 8.1 z-score
GACGAACGGGGGTATCGAGACGTGCTA: 2.97 z-score
GACGGTAACCTTTTCCTGACGTGCTAG: 0.0403 z-score
TCACTCCTCTCTCTTTCACTGTGCTAG: 2.1 z-score
GACGCACTGGGTATCGGGACGTGCTAG: 0.722 z-score
TTAGGTATCCTTTTCATTTAGTGCTAG: 0.915 z-score
CCCAGGGTCTGTTTGGGTCTGTGCTAG: -0.768 z-score
CCTTCTCTAACCTCTCTAATAGTGCTA: 1.29 z-score
TTAGGACTGGGGTACCGGTTAGTGCTA: 0.0351 z-score
TTAGGTTTCGACACTGGGTTCGTGCTA: 8.56 z-score
TGCATTCCCTTTCTCAACCTGTGCTAG: 1.36 z-score
TTAGGTTACGACACTGGGTTAGTGCTA: 0.117 z-score
TTATGTTTCGGGTATCGGTTAGTGCTA: 6.4 z-score
GACGGTATCGGCCTCGGGACGTGCTAG: 4.02 z-score
GACGGTCTCGGTTTCGAGACGTGCTAG: 6.5 z-score
TCATGTGTCTGATTATTACTGTGCTAG: 0.454 z-score
GACGGACTCGGGACTGGGGACGTGCTA: -0.545 z-score
ATGTATACACACTATAGTGAAGTGCTA: 0.236 z-score
TTAGGTCTCGGACAGGGTTAGTGCTAG: 0.942 z-score
GACGAACTTGGGTTTCGAGACGTGCTA: 1.98 z-score
TTAGTTCTCAGTCTCGATTAGTGCTAG: 4.48 z-score
TTCCTTCTTGAACTCTTTACGTGCTAG: 1.79 z-score
TCATTTTTTTCCCTGAAACTGTGCTAG: 0.856 z-score
TTAGGTATCGGGACTGGGTTCGTGCTA: 4.29 z-score
TCAGAACTGAGTATCGATTAGTGCTAG: 4.25 z-score

Sample 4
Target: Prothrombin, mature alpha-thrombin (F2, Homo sapiens, UniProt P00734)
Method: aptamer microarray, sandwich
Molecule type: DNA with 2'F-ANA
Medium: in vitro
Tested at: 200 nM
Notes: whole 15-mer aptamer, many near background
With: Cy3 exosite-II aptamer, 400 nM
Reading: higher = stronger binding
Endpoint: mean fluorescence intensity
Sequence: GGTTGGTGTGGTTGG
2'F-ANA at 4 5 7 9 15: 64.2 a.u.
2'F-ANA at 1 2 4 5 6 8 9 10 11 13 14: 57.1 a.u.
2'F-ANA at 1 2 3 4 8 9 13 14 15: 120 a.u.
2'F-ANA at 1 3 4 5 7 8 9 11 12 13 14: 61.2 a.u.
2'F-ANA at 2 8 10 13 15: 110 a.u.
2'F-ANA at 1 2 3 7 9 10 11 13 14 15: 53.7 a.u.
2'F-ANA at 1 2 4 9 10 11 14: 46.4 a.u.
2'F-ANA at 3 4 5 7 8 9 10 11 15: 84.8 a.u.
2'F-ANA at 2 6 8 11 12 13 15: 467 a.u.
2'F-ANA at 3 4 5 7 9 12 13 14 15: 59.1 a.u.
2'F-ANA at 2 6 9 10: 114 a.u.
2'F-ANA at 9 10 12 13 15: 177 a.u.
2'F-ANA at 2 3 4 5 6 7 8 12: 218 a.u.
2'F-ANA at 4 5 6 7 9 12 13: 187 a.u.
2'F-ANA at 1 3 6 7 8 10 15: 86.3 a.u.
2'F-ANA at 1 2 3 5 6 7 8 10 11 13: 49.2 a.u.
2'F-ANA at 1 3 4 5 6 7 8 10 14: 70 a.u.
2'F-ANA at 2 3 4 6 7 9 12 13 15: 437 a.u.
2'F-ANA at 1 2 3 4 6 7 8 9 10 12 13: 67.8 a.u.
2'F-ANA at 2 3 4 5 6 7 8 11 13: 71.1 a.u.
2'F-ANA at 2 3 4 5 7 8 10 11 15: 92.7 a.u.
2'F-ANA at 1 2 6 7 8 10 11 13 14 15: 49.7 a.u.
2'F-ANA at 1 6 7 8 10 11 15: 53.5 a.u.
2'F-ANA at 1 2 5 6 9 10 12 14: 50.3 a.u.
2'F-ANA at 1 4 7 9 10 14: 43.4 a.u.
